Measurements gathered from unrelated publications.
Protocols differ between the studies behind these lines. Several values in a cell are separate wells, animals, samples, runs or records. Numbers after ± are the reported error.
STK3: Serine/threonine-protein kinase 3 (STK3, Homo sapiens, UniProt Q13188)
UniProt Q13188, sequence (whole entry, looked up): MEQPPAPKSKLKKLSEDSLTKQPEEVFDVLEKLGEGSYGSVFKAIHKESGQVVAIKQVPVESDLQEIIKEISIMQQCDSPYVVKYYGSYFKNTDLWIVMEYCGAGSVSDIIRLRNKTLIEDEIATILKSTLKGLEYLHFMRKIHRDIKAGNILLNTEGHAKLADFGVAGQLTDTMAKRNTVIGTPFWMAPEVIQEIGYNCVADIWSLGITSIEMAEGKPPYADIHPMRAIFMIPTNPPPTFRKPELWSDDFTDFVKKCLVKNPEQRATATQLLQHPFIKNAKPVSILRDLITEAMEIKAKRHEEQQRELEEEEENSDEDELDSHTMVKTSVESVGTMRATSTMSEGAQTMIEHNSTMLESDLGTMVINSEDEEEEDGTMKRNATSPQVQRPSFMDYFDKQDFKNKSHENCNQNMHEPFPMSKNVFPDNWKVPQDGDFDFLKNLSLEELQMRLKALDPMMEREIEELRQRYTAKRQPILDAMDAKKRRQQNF
lasR: Transcriptional activator protein LasR (lasR, Pseudomonas aeruginosa, UniProt P25084)
UniProt P25084, sequence (whole entry, looked up): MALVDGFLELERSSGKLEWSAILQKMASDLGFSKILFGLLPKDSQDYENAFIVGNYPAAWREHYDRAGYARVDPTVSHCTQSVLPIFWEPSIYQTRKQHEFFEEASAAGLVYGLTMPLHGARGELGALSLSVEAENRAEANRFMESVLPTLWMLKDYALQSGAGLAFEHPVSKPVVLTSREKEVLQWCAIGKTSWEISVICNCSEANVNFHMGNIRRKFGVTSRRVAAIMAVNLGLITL
UniProt Q00526, sequence (whole entry, looked up): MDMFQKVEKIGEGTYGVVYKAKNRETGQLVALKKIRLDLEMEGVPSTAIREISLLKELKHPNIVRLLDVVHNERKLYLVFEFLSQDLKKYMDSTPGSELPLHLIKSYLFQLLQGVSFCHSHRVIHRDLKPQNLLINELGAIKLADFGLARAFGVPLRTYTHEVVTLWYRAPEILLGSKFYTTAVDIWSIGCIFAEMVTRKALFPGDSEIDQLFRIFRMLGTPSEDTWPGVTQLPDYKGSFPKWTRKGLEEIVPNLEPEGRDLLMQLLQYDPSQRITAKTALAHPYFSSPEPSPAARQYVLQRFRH
UniProt O14733, sequence (whole entry, looked up): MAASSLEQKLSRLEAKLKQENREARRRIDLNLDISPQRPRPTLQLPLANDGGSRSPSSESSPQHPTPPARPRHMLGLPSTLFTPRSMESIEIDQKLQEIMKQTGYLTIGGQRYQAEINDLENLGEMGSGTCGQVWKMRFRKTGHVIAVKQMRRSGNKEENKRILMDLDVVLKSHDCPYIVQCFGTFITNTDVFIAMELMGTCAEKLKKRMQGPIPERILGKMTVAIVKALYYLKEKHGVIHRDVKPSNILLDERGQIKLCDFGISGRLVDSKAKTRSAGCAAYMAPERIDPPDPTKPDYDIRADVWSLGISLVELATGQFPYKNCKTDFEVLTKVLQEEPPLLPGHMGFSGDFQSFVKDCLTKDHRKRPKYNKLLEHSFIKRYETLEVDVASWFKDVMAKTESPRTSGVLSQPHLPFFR
UniProt O60674, sequence (whole entry, looked up): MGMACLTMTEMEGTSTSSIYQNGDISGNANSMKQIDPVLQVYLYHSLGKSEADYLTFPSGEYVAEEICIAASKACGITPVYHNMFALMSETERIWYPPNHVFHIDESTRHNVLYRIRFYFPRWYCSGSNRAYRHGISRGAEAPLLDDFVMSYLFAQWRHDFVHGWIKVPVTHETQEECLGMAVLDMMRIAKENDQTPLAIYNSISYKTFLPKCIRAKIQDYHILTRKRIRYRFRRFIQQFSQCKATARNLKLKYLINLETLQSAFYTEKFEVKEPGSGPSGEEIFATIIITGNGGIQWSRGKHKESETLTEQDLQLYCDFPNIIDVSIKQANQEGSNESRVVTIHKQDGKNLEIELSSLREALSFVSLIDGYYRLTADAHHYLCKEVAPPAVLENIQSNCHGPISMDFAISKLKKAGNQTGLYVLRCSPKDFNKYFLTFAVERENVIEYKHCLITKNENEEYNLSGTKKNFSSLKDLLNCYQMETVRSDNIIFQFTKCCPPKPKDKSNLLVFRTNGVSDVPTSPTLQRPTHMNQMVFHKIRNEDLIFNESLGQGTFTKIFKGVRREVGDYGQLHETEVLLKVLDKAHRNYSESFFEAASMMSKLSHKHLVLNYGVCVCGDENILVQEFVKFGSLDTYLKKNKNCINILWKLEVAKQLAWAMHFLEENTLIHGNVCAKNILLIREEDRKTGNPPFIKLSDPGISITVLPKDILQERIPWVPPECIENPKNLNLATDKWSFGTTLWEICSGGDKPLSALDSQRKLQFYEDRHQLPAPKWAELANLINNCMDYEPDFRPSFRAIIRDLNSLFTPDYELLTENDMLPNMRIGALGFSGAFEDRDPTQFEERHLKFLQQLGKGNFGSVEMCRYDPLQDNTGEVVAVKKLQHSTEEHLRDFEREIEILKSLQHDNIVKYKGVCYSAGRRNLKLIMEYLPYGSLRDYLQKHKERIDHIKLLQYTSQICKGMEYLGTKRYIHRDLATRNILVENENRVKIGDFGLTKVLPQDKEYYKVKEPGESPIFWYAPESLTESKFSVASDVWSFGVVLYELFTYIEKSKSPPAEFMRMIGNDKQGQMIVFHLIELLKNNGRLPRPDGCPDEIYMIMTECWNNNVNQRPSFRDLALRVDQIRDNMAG
UniProt Q2FDS6, sequence (whole entry, looked up): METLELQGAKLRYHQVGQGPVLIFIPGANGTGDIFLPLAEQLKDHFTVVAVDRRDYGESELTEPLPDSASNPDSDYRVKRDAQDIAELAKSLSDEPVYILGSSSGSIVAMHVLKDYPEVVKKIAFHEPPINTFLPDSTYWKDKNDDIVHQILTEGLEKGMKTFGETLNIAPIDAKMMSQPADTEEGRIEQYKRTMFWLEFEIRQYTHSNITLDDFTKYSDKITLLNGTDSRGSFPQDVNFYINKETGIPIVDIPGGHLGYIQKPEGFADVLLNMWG
UniProt Q08499, sequence (whole entry, looked up): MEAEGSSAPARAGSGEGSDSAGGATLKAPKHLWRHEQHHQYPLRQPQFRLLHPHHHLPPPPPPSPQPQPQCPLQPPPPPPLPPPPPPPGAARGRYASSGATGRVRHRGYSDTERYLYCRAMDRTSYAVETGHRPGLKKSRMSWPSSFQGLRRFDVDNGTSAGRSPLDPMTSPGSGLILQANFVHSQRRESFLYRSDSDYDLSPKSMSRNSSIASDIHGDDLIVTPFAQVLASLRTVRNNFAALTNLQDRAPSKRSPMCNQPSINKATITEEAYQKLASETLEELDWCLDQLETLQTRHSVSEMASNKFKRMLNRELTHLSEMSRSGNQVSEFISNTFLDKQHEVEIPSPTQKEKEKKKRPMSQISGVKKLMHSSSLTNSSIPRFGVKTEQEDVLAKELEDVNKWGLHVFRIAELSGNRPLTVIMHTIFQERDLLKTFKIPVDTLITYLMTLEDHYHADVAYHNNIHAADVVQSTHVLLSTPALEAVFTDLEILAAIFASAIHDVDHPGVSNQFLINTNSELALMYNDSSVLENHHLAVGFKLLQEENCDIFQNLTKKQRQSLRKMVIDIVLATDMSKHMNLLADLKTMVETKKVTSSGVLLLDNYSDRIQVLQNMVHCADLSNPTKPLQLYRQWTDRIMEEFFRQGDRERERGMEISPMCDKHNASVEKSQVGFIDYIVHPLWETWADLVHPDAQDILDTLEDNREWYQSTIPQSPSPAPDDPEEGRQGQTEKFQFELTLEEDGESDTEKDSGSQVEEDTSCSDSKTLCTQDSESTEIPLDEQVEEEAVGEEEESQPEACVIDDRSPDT

Compound | target | assay | system | setting | inhibition
O=C(Nc1ccncc1)c1ccccc1OS(=O)(=O)F | Uncharacterized hydrolase SAUSA300_2518 (Staphylococcus aureus, UniProt Q2FDS6) | enzyme activity, inhibitor, fluorogenic substrate | – | 50 µM, 1 h preincubation | 92%
N[C@H](C(=O)N1CCCC1)C1CCN(c2nccc3c(-c4ncc(Cl)cc4Cl)cccc23)CC1 | STK3 | kinase activity, inhibitor | – | 10 µM, added: ATP 1 mM | -4.8%
CCCCC1(C2CCCC2)Cc2cc(OCCCC(=O)O)c(Cl)c(Cl)c2C1=O (stereo not drawn) | LRRC8A (Homo sapiens, UniProt Q8IWT6) | ion current, inhibitor | HEK293 | 10 µM, added: hypotonic stimulation | 90.3 ± 2%
C[C@H](NCc1ccc(-c2ccc(C(F)(F)F)cc2)cc1)C(N)=O | Receptor-type tyrosine-protein kinase FLT3 (FLT3, Homo sapiens, UniProt P36888) | cell-free assay, competition with immobilised ligand | – | 1 µM | 14%
COc1ccccc1N1CCN(CCCCN2CCCc3ccccc3C2=O)CC1 | 5-hydroxytryptamine receptor 1E (HTR1E, Homo sapiens, UniProt P28566) | radioligand binding | – | concentration not given, added: [3H]5-HT | -11.4%
CCCCCCCCCC(=O)CC(=O)Nc1ccccc1 | lasR | reporter gene, antagonist | Pseudomonas aeruginosa PAO-JP2 | 100 µM, plasI-LVAgfp reporter, added: OdDHL 150 nM | 65%
CN(/N=C/c1ccccc1C(=O)O)c1nc(-c2ccccc2Cl)cs1 | Tyrosine-protein kinase JAK2 (JAK2, Homo sapiens, UniProt O60674) | kinase activity | – | 1 µM, mean | 0.19%
COc1ccc2c(c1O)-c1c(O)c(OC)cc3c1[C@H](C2)[N+](C)(C)CC3 | 3',5'-cyclic-AMP phosphodiesterase 4D (PDE4D, Homo sapiens, UniProt Q08499) | enzyme activity, inhibitor, radiometric | – | 5 µM | 7.23%
C=CC(=O)Nc1cc(-c2nn(C3CCC(N4CCN(C(C)=O)CC4)CC3)c3ncnc(N)c23)ccc1Oc1ccccc1 (stereo not drawn) | Ribosomal protein S6 kinase alpha-3, C-terminal kinase domain (RPS6KA3, Homo sapiens, UniProt P51812) | inhibitor, KiNativ profiling | biochemical | 2 µM | 2.6%
CC(C)[C@H]1NC(=O)C[C@H]2/C=C/CCSSC[C@@H](NC1=O)C(=O)N[C@H](Cc1cccc3ccccc13)C(=O)NCC(=O)O2 | Dual specificity mitogen-activated protein kinase kinase 7 (MAP2K7, Homo sapiens, UniProt O14733) | – | – | 10 µM | 2.3%
CC(=O)NC[C@@H]1[C@@H](O)C[C@H]2[C@H](O)C[C@@H](CO)N12 | β-N-acetylglucosaminidase | enzyme activity, inhibitor, colorimetric | Canavalia ensiformis | 68.4 nM, added: p-nitrophenyl GlcNAc substrate | 87.4% and 86.9%
CCCCCCCCCNC(=O)CC(=O)c1ccccc1 | lasR | reporter gene, antagonist | Escherichia coli JLD271 | 10 µM, pSC11 and pJN105L plasmids, added: OdDHL 2 nM | 46%
O=C(CN1CN(c2ccccc2)C2(CCN(C(=O)c3cnc4[nH]ncc4c3)CC2)C1=O)NCC(F)(F)F | Cyclin-dependent kinase 3 (CDK3, Homo sapiens, UniProt Q00526) | inhibitor | – | concentration not given | < 50%
CCCCCCCCCC(=O)CC(=O)N[C@H]1CCOC1=O | lasR | reporter gene, antagonist | Pseudomonas aeruginosa PAO-JP2 | 100 µM, plasI-LVAgfp reporter, added: OdDHL 150 nM | -98%
CS(C)(=O)=Nc1ccc(-c2ccc(-c3nc4cc(O[C@@H]5CO[C@H]6[C@@H]5OC[C@H]6O)[nH]c4cc3F)cc2)cc1 | Tyrosine-protein kinase ZAP-70 (ZAP70, Homo sapiens, UniProt P43403) | enzyme activity, inhibitor | – | 10 µM | -1%
CN(C)[C@H]1C[C@@]23CC[C@@]4(O2)C(=CC[C@]2(C)[C@@H](c5ccc6ccncc6c5)CC[C@H]24)C=C3[C@@H](O)[C@@H]1O | STK3 | ATP probe labelling, inhibitor, KiNativ profiling | – | 1 µM | -3.9%
O=C(O)c1ccccc1/C=N/Nc1nc(-c2ccccc2Cl)cs1 | Serine/threonine-protein kinase Nek2 (NEK2, Homo sapiens, UniProt P51955) | enzyme activity, inhibitor | – | 1 µM | -3.82%
COc1ccc(F)cc1S(=O)(=O)Nc1cnc2c(c1)C(=O)NCCO2 | L-type calcium channel Benzothiazepine site | radioligand binding | – | 10 µM | 19%

Excerpt of the above:
Compound | target | assay | system | setting | inhibition
CN(C)[C@H]1C[C@@]23CC[C@@]4(O2)C(=CC[C@]2(C)[C@@H](c5ccc6ccncc6c5)CC[C@H]24)C=C3[C@@H](O)[C@@H]1O | STK3 | ATP probe labelling, inhibitor, KiNativ profiling | – | 1 µM | -3.9%
COc1ccccc1N1CCN(CCCCN2CCCc3ccccc3C2=O)CC1 | 5-hydroxytryptamine receptor 1E (HTR1E, Homo sapiens, UniProt P28566) | radioligand binding | – | concentration not given, added: [3H]5-HT | -11.4%
C[C@H](NCc1ccc(-c2ccc(C(F)(F)F)cc2)cc1)C(N)=O | Receptor-type tyrosine-protein kinase FLT3 (FLT3, Homo sapiens, UniProt P36888) | cell-free assay, competition with immobilised ligand | – | 1 µM | 14%
